Experimental data of several laboratories.
Lines come from different studies, so protocols differ. ± marks the error that the study gave.

Peginesatide — phosphorylation level (UT7/EPO; tyrosine phosphorylation, LC-MS/MS phosphoproteomics, GluC, item: STAT3 tyrosine 705; 10 nM, 15 min, added: 10 U/mL EPO; baseline: vehicle): 3.7 fold
bis(2,4-dimethylpyridine)dichloroplatinum(II) — IC50 (BEAS-2B; cell viability, MTT; 24 h): 9.2 µM
RLFEWVPRL — reporter activation (Jurkat T cells expressing 1G4 TCR; NFAT-eGFP reporter, flow cytometry; peptide; concentration not given, HLA-A*02:01 NY-ESO system): 0.18%
MTVCNASQRQAHAQATAVSL — selectivity ratio (H1437 lung adenocarcinoma; phage binding output/input; peptide; baseline: control phage): 3.4 ± 1.2
Ac-LRKLRKRLLRDWLKAFYDKVAEKLKEAF-NH2 (N-acetyl, C-amide) — newly synthesized apoE secretion (THP-1-derived macrophages; peptide; 20 µg/mL, 4 h; baseline: untreated control): 4 fold
GSGAGQITKV — binding intensity (human SCRIB PDZ3-4 tandem (MBP fusion); automated holdup; peptide, purified PDZ protein; concentration not given, unit not given; baseline: biotin control resin, higher = stronger binding): -0.14
GLFQWLAGV — reporter activation (Jurkat T cells expressing 1G4 TCR; NFAT-eGFP reporter, flow cytometry; peptide; concentration not given, HLA-A*02:01 NY-ESO system): 0.091%
epoetin alfa — mRNA level (UT7/EPO; RT-qPCR, item: EGR1; concentration not given, 90 min, normalized to HPRT1; baseline: vehicle): 63.6 fold
ALLQWIAIL — reporter activation (Jurkat T cells expressing 1G4 TCR; NFAT-eGFP reporter, flow cytometry; peptide; concentration not given, HLA-A*02:01 NY-ESO system): 0.092%
KDECVIATEV — normalised SPR binding response (human MAGI1-3/6 PDZ construct (MBP fusion); surface plasmon resonance; peptide; concentration not given; higher = stronger binding): 10 normalised RU
maraviroc — mRNA level (HBMEC; gene expression, qPCR; 2.5 µM, 24 h; baseline: untreated cells, increase): 13.7 fold

Excerpt of the above:
epoetin alfa — mRNA level (UT7/EPO; RT-qPCR, item: EGR1; concentration not given, 90 min, normalized to HPRT1; baseline: vehicle): 63.6 fold
